Results collected from several papers.
Each numbered part is a random draw from the data of one study; scales do not carry over between parts.

Block 1 — organism: Plasmodium berghei; mode: inhibitor; cells: Huh-7; strain: GFP-expressing, liver stage; concentration: 10 µM; time: 24 h; relative to: untreated control
Structure (SMILES)	infection rate
CN1C(C(=O)Nc2ccccn2)=C(O)c2ccccc2S1(=O)=O	111%
CC(=O)Nc1ccc(S(=O)(=O)Nc2ccc([N+](=O)[O-])cc2)cc1	96.8%
O=C(c1ccc(OCCN2CCCCC2)cc1)c1c(-c2ccc(O)cc2)sc2cc(O)ccc12	62.8%
Cc1ncc(C[n+]2csc(CCO)c2C)c(N)n1	105%
Cc1onc(-c2ccccc2)c1-c1ccc(S(N)(=O)=O)cc1	92.1%
O=C(O[C@H]1CN2CCC1CC2)N1CCc2ccccc2[C@@H]1c1ccccc1	85.7%
CN[C@@H]1[C@H](O)[C@H](NC)[C@H]2O[C@@]3(O)C(=O)C[C@@H](C)O[C@H]3O[C@@H]2[C@H]1O	105%
CC(N)[C@]12C[C@H]3C[C@H](C[C@H](C3)C1)C2 (some centres unmarked)	94.8%
CCCc1nc2c(C)cc(-c3nc4ccccc4n3C)cc2n1Cc1ccc(-c2ccccc2C(=O)O)cc1	80.9%
CC(C)c1nc(N(C)S(C)(=O)=O)nc(-c2ccc(F)cc2)c1/C=C/[C@@H](O)C[C@@H](O)CC(=O)O	131%
Cc1cn([C@H]2C[C@H](N=[N+]=[N-])[C@@H](CO)O2)c(=O)[nH]c1=O	90.5%

Block 2 — cell line: mouse MPNST tumor cells; technique: high-content nuclear imaging; item: cell number; concentration: 10 µM; time: 12 h; notes: mean of 2 replicates; relative to: plate mean; direction: higher = more cells
Structure (SMILES)	nuclei count [z-score]
COc1ccc(CCN2CCN(CCCc3ccccc3)CC2)cc1OC	2.51
COc1cc2c(cc1OC)-c1c/c(=N\c3c(C)cc(C)cc3C)n(C)c(=O)n1CC2	0.682
COc1cccc(OC)c1C(=O)N[C@@H]1C(=O)N2[C@@H]1SC(C)(C)[C@@H]2C(=O)O	0.108
CC(C)Cn1c(=O)n(C)c(=O)c2[nH]cnc21	0.246
C[N+](C)(C)CCCCCNCC12CC3CC(CC(C3)C1)C2	0.839
CC1(C)S[C@@H]2[C@H](NC(=O)[C@H](C(=O)O)c3ccsc3)C(=O)N2[C@H]1C(=O)O	1.1
CNc1oc(-c2cccc3ccccc23)nc1C#N	-0.247

Block 3 — effect on: binding; technique: radioligand binding; concentration: 10 µM
Target: D(3) dopamine receptor (DRD3, Homo sapiens, UniProt P35462)
UniProt P35462, sequence (whole entry, looked up): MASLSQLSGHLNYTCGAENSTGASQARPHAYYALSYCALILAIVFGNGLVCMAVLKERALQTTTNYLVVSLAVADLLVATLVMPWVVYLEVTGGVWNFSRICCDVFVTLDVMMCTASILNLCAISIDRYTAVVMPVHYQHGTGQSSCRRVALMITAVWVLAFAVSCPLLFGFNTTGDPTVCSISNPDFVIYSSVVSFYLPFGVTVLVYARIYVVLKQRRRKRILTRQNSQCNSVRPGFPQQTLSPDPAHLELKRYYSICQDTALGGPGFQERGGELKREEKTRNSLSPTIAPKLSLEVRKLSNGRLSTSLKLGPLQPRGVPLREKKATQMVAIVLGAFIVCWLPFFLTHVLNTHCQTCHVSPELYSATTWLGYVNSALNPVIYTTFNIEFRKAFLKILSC
SMILES	inhibition
Cc1nc(N2CC[C@@H](O)C2)ncc1-c1cc(C(F)(F)F)cc2[nH]ncc12	-16.3%
O=C([C@H]1C[C@H](O)CN1c1ccc(Cl)cc1)N1CC2COCC(C1)N2Cc1ccc(Cl)cc1	2.75%
COCc1nc2cnc3cc(-c4c(C)noc4C)c(OC[C@H]4CCNC4)cc3c2n1[C@H](C)c1ccccc1	62.4%
CC1=C(C#N)C(c2ccc3c(c2)c(NC(=O)c2ccccc2C)nn3C)C(C#N)=C(C)N1	2.48%
CC(=O)Nc1c(F)cc(C(=O)N[C@H]2CC[C@H](O)CC2)cc1O[C@@H](C)c1ccccc1	39.1%
Cc1cc(-n2nc(Cc3cc(F)cc(C(F)(F)F)c3)nc2C)ccc1C(N)=O	3.4%
Cc1c(NC(=O)c2cc(C(N)=O)nc3cc(F)ccc23)c(C(F)(F)F)nn1Cc1ccc(C(C)(C)C)cc1	11.9%
CC(=O)c1c(NS(C)(=O)=O)c2cc(-c3ccc(Cl)cc3)c(-c3ccc(Cl)cc3Cl)nc2n(C)c1=O	5.91%
O=C1c2ccc(Nc3ccc(F)cc3F)cc2CCc2ccc(OC[C@H](O)CO)cc21	-7.71%
O=C(NC[C@@H]1[C@H]2CN(C(=O)OCc3cc(C(F)(F)F)cc(C(F)(F)F)c3)C[C@@H]12)c1ccc2[nH]nnc2c1	6.61%
CC(C)(O)c1cncc(-c2nc3ccc(F)cc3n2C2CC2)c1	-6.18%
CC(=O)Nc1nc(CN2CCC[C@H](Cc3cc(C)nc(C)c3)C2)cs1	-11.4%
CC(=O)N1CCC(c2ccc(C(=O)NC(=N)N)cc2C(F)(F)F)CC1	-13.4%
CCOC(=O)c1cc2cc(-c3cc(C(=O)NCc4ccc(C(=O)O)cc4)nn3C)ccc2[nH]1	2.74%
CNC(=O)Nc1ccc2c(c1)[C@]1(CC2)OC(=O)N(CC(=O)N(Cc2ccc(F)cc2)[C@@H](C)C(F)(F)F)C1=O	57.8%
CN([C@@H]1CCc2c(CC(=O)O)c3cc(S(C)(=O)=O)ccc3n2C1)S(=O)(=O)c1ccc(F)cc1	-5.72%

Block 4 — effect on: enzyme activity; mode: inhibitor; concentration: 0.5 µM; relative to: control
Target: Serine/threonine-protein kinase B-raf (BRAF, Homo sapiens, UniProt P15056)
UniProt P15056, sequence (whole entry, looked up): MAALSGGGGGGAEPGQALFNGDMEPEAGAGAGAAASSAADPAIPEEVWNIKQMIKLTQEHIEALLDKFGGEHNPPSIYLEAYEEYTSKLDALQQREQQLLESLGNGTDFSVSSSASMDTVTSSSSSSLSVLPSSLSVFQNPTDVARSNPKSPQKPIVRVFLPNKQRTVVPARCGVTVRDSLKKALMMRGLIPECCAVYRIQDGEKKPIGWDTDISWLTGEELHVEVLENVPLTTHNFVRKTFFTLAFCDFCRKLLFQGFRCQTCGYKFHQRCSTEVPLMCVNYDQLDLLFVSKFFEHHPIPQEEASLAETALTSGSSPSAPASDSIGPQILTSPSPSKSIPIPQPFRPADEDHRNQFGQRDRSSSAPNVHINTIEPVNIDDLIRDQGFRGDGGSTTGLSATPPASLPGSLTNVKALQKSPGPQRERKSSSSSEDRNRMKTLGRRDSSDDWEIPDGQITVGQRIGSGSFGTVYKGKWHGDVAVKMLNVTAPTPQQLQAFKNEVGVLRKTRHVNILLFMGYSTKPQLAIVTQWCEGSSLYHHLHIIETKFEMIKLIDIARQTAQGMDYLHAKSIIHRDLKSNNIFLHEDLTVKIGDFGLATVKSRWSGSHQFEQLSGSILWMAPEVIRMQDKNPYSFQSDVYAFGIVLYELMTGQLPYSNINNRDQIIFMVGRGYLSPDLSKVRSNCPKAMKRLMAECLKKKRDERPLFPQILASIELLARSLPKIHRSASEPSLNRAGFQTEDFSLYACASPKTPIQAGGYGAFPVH
SMILES	remaining activity [%]
CCN1/C(=C/C(C)=O)Sc2ccc(OC)cc21	95.3
O=C(Nc1ccc(Cl)cc1)c1ccccc1NCc1ccncc1	90
Nc1[nH]nc2nnc(-c3c(-c4ccccc4)nn4ccccc34)cc12	95.7
CCOc1cc2ncnc(Nc3cccc(Br)c3)c2cc1OCC	97.1
COc1ccc(-c2cnc3c(-c4ccsc4)cnn3c2)cc1	85.9
COc1ccc(Cl)cc1NC(=O)Nc1cc(C)nc2ccccc12	98.9
CC(C)[C@H](CO)Nc1nc(Nc2cccc(Cl)c2)c2ncn(C(C)C)c2n1	92.7

Some of these lines once more (block 1):
Structure (SMILES)	infection rate
CC(=O)Nc1ccc(S(=O)(=O)Nc2ccc([N+](=O)[O-])cc2)cc1	96.8%
CN1C(C(=O)Nc2ccccn2)=C(O)c2ccccc2S1(=O)=O	111%
CC(C)c1nc(N(C)S(C)(=O)=O)nc(-c2ccc(F)cc2)c1/C=C/[C@@H](O)C[C@@H](O)CC(=O)O	131%
Cc1ncc(C[n+]2csc(CCO)c2C)c(N)n1	105%
Cc1onc(-c2ccccc2)c1-c1ccc(S(N)(=O)=O)cc1	92.1%
